# Published values from different studies.
# ± marks the error that the study gave.
SMILES,target or system,test,test system,setting,EC50 [µM]
Cc1cc(NC(=O)c2cccc(NC(=O)C3=CC(C)(C)CCC3=O)c2)ccc1Nc1nccc(-c2cccnc2)n1,SH-SY5Y MKK7-activated cells,"c-Jun Ser63 phosphorylation, inhibitor, HTRF",,"6 h, with: doxycycline",0.616 ± 0.169
COc1ccc(NC(=O)N[C@H](Cc2ccc(C#N)cc2)C(=O)NCC2(c3ccc(O)cc3)CC2)cc1,N9 mouse microglia,MTT,,"24 h, resting conditions",> 100
COC(=O)c1ccc(NC(=O)CSc2nc3ccc(OC)cc3[nH]2)cc1,human neutrophils,"calcium mobilization, agonist",,,0.9
COCCCn1nc(-c2ccc(CC(=O)Nc3cc(C(C)(C)C)on3)cc2)c2c(N)ncnc21,A549,cell viability,,,5.92 ± 1.33
CCCCNCC1=Cc2cc3c(cc2[C@@H](c2cc(OC)c(OC)c(OC)c2)[C@@H]1C(=O)OC)OCO3,Leishmania infantum,iRFP fluorescence,"mouse splenocytes infected, amastigote, iRFP, ex vivo splenic explant",48 h,31.7 ± 2.1
COC(=O)C1(C)C=C(C(=O)Nc2cccc(C(=O)Nc3ccc(Nc4nccc(-c5cccnc5)n4)c(C)c3)c2)C(=O)C1 (stereo not drawn),SH-SY5Y MKK7-activated cells,"c-Jun Ser63 phosphorylation, inhibitor, HTRF",,"6 h, with: doxycycline",0.22 ± 0.025
O=C(Nc1ccc([N+](=O)[O-])cc1)N[C@@H](Cc1c[nH]c2ccccc12)C(=O)NCC1(c2ccccc2)CCCCC1,human neutrophils,"chemotaxis, agonist",,,0.22 ± 0.07
COC(=O)[C@@H]1C(c2nc3ccccc3s2)=Cc2cc3c(cc2[C@H]1c1cc(OC)c(OC)c(OC)c1)OCO3,Leishmania infantum,iRFP fluorescence,"mouse splenocytes infected, amastigote, iRFP, ex vivo splenic explant",48 h,99.4 ± 6.3
COC(=O)[C@@]1(C)C=C(C(=O)OCc2cccc(C(=O)Nc3ccc(Nc4nccc(-c5cccnc5)n4)c(C)c3)c2)C(=O)CC1,SH-SY5Y MKK7-activated cells,"c-Jun Ser63 phosphorylation, inhibitor, HTRF",,"6 h, with: doxycycline",0.644 ± 0.11
O=C1Nc2cccc(C#CC3(O)CCNCC3)c2/C1=C/c1cc2ccccc2[nH]1,C8161.9,"gelatin degradation, inhibitor",,short-term,< 0.05
Cn1nc(-c2ccc(CC(=O)Nc3cc(C(C)(C)C)on3)cc2)c2c(N)ncnc21,KM12,cell viability,,,0.71 ± 0.07
Cc1cc(NC(=O)c2cccc(NC(=O)C3=CC(C)(C)CC3=O)c2)ccc1Nc1nccc(-c2cccnc2)n1,SH-SY5Y MKK7-activated cells,"c-Jun Ser63 phosphorylation, inhibitor, HTRF",,"6 h, with: doxycycline",0.378 ± 0.108
CCOc1ccc2nc(SCC(=O)Nc3ccc(Br)cc3)[nH]c2c1,human neutrophils,"calcium mobilization, agonist",,,11.2
COc1ccc(C2(CNC(=O)[C@H](Cc3c[nH]c4ccccc34)NC(=O)Nc3ccc([N+](=O)[O-])cc3)CCCCC2)cc1,human neutrophils,"Ca2+ mobilization, agonist",,with: probenecid 2.5 mM,5.6 ± 1.6
C=CC(=O)Nc1cccc(N(C(=O)OCc2ccc(F)cc2)c2ccnc(Nc3ccn(C)n3)n2)c1,Ba/F3 HER2 GSP insertion,cell growth,,inactive means EC50 above 10 µM,0.019 ± 0.0036
Cc1cc(OCCCc2c3n(c4c(-c5c(C)nn(C)c5C)c(Cl)ccc24)CCCN(c2cc(C(=O)O)cc4c2ccn4C)C3=O)cc(C)c1Cl,K562,caspase-3/7 activation,,"3 h, 5% FBS",> 50
CCN1CCN(Cc2ccc(Nc3ncc4c(n3)Sc3ccccc3C(=O)N4C)cc2C(F)(F)F)CC1,HeLa S3,"cell growth, CellTiter-Glo",,96 h,> 10
O=C(Nc1ccc([N+](=O)[O-])cc1)N[C@@H](Cc1c[nH]c2ccccc12)C(=O)NCC1(c2ccccn2)CCCCC1,human neutrophils,"Ca2+ mobilization, agonist",,with: probenecid 2.5 mM,0.68
COc1ccc(NC(=O)N[C@H](Cc2ccc(C#N)cc2)C(=O)NCC2(c3cccc(O)c3)CC2)cc1,N9 mouse microglia,MTT,,"24 h, resting conditions",44.4
O=C(Nc1ccc([N+](=O)[O-])cc1)N[C@@H](Cc1c[nH]c2ccccc12)C(=O)NCC1(c2ccccc2)CC1,human neutrophils,"Ca2+ mobilization, agonist",,with: probenecid 2.5 mM,2.3 ± 0.51
COc1ccc2nc(SCC(=O)Nc3ccc(OC(F)(F)F)cc3)[nH]c2c1,human neutrophils,"calcium mobilization, agonist",,,3
